Measurements collected from several papers.
Parts stem from different laboratories: compare values within a part only.

Study 1
Target: Histone acetyltransferase KAT6A, both winged helices, GST fusion (KAT6A, Homo sapiens, UniProt Q92794, residues 1-181)
Method: protein binding microarray
Form: double-stranded DNA, one strand shown
Medium: in vitro
Concentration: not given
Setting: 8-mer, flanks averaged, mean of 2 arrays, mostly near background
Relative to: not given
Reading: higher = stronger binding
Residues (chain): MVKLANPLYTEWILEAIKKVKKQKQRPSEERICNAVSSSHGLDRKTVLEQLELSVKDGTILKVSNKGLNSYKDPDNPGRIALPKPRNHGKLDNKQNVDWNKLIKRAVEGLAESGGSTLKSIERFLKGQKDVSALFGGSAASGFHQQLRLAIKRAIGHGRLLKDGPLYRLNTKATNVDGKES
The E-score of `CAACCGCC` is reported as 0.114.
`AGTCTTAC` has an E-score of -0.0265.
With `ACCCCATA` the E-score was -0.127.
The E-score of `AGCTCGAG` is reported as -0.0139.
`GTGAGTTA` gave an E-score of -0.0995.
With `AAACAGAG` the E-score was -0.147.
`AGGGTATA` gave an E-score of -0.136.
For `GTGTGTTA`, the E-score was -0.0746.
`GCACCCGA` has an E-score of 0.182.
For `CATCGTGG`, the E-score was -0.0668.
`ATTCCGCA` gave an E-score of 0.109.
With `ATACTCTA` the E-score was -0.00855.
With `GCCTGTCC` the E-score was -0.085.
`CGGAATTC` has an E-score of 0.0553.
For `CAGGCACG`, the E-score was 0.059.
For `ACTTGGGC`, the E-score was -0.127.
With `AGTACAAG` the E-score was -0.181.
For `AGTTCCCC`, the E-score was 0.0434.
`ACGATTCT` gave an E-score of 0.0527.
`AGGTATCG` gave an E-score of 0.0714.

Study 2
Molecule: PhoQ, residues 284 288 289 292 302 303 GNNTDL
Method: Sort-seq
Measured: YFP reporter
Medium: E. coli
Setting: PhoQ-PhoP variant library
With: 10 µM Mg2+
Relative to: high Mg2+ state
Reading: higher = stronger signaling
For PhoP, residues 12 14 15 18 19 SHWTV (Escherichia coli, UniProt P23836): fold induction read 3.99.
PhoP, residues 12 14 15 18 19 QYCSL (Escherichia coli, UniProt P23836) — fold induction: 2.63.
For PhoP, residues 12 14 15 18 19 STHWV (Escherichia coli, UniProt P23836): fold induction read 6.78.

Study 3
Target: RING finger protein unkempt homolog, zinc fingers 1-6, GST-SBP tag (UNK, Homo sapiens, UniProt Q9C0B0, residues 30-357)
Method: RNA Bind-n-Seq
Form: RNA
Medium: in vitro
Concentration: not given
Setting: RNA with constant flanks, human and mouse sites, ends assumed
Relative to: input RNA pool
Reading: higher = stronger binding
Target sequence (chain): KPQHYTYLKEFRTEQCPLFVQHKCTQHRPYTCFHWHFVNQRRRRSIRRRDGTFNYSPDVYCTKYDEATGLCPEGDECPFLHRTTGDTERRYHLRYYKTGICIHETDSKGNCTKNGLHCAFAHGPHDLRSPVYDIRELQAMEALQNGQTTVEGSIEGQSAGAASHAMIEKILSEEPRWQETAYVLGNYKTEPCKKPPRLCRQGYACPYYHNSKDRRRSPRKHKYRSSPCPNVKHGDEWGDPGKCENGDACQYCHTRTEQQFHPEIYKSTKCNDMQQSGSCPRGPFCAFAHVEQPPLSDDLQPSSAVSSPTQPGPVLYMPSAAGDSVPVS
`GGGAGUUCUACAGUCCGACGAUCUUAGGUGAAGUGGUUUAAACCAAACGGAACUCUUCAUCUUAAACUACACGUUGAAAAUCAACCCAAUAAUUCUGUAUUAACUGAAUUCUGAACUUUUCAGGAGGUACUGUGAGGAAGAGCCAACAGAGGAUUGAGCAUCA` gave a bound/input enrichment of 0.158 ratio.
For `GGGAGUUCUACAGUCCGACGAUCCCAGUCCACAGGGGAAGCCUGUUAGGACUGUGGAGCGUGUUUCCCCGAAGGUAGCUUCCAACUAGGCUUUCCUCACUGCUUUCUCCCCCAGCGCCUGUAUUAUGUGAAGGAGGCCCAUGGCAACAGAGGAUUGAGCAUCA`, the bound/input enrichment was 0.359 ratio.
The bound/input enrichment of `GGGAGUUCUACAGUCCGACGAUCAGCCGAGGAGGCCCCGCGCAGUGCUGCCAACGCCCCGGCGGAGAAGCUGAGGACAAGAUCUAAUUUGAAAUAUUAAAAGUGGAUACAAAACUGUUUCCGAAAUGCAGACAAUUAAGUGUGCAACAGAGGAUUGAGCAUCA` is reported as 0.188 ratio.
`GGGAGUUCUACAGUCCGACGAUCGAUGUUAGGGAUGUGGUUGGGCGACGUCUAGAUCCCAGAGAAGGCCCUGGAAGGCCUCCAUUAGAUGCUAGGGAUCAUUUUGGAAGACCUCCUGUGGACAUGAGGGAGAAUCUUGUGAGGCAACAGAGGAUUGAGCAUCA` gave a bound/input enrichment of 0.743 ratio.
`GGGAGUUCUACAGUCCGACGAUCAACUCUCUCUGUAAAAGCAUAAUGAUGUAUGCCUGUACCAAGAAUGUUGACUUGGCUAUUCAGCAGGGGAAACAAAAACCUUCUGGCCUCACCCGUUCCACAUCAAUGCUUAUUUCUUCUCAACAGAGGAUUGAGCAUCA` has a bound/input enrichment of 0.108 ratio.
With `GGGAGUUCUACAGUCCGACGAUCGACGUGGUGGUAGCCGUUGGGUUGGGAAAGUGAGGGAUUUUUGGCCUCGUUUCUCCUGCUUCUUUUCUCCUCCCUUUUACUUUGCCGGUAGAACACAGUUAUGGGUCGCAAGAAGAAGAACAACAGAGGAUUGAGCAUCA` the bound/input enrichment was 0.441 ratio.
`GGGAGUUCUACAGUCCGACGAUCCCCUGACUGCAGAGCCUUCAUCGUCUGGCUGGCCAACGGGGACACCCUCCGUGUCUUCAAGAUGACCAAGCGGGAGGAUGGGGGCUACACCUUCACAGCCACCCCAGAGGACUUCCCUAACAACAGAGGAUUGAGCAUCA` gave a bound/input enrichment of 0.0876 ratio.
`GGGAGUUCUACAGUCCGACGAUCUUAGUACAGGCUGAACAAAGAAAUAGAGACUUGCAGGCUGAUAACCAAAGACUGAAAUAUGAAGUGGAGGCAUUAAAGGAGAAGCUAGAGCAUCAAUAUGCACAGAGCUAUAAGCAGGUCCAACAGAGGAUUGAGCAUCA` gave a bound/input enrichment of 0.583 ratio.

Study 4
Target: Phosphate system positive regulatory protein PHO4, full length, GST-tagged (PHO4, Saccharomyces cerevisiae, UniProt P07270, residues 1-312)
Method: competition protein-binding microarray
Form: double-stranded DNA, one strand shown
Medium: in vitro
Concentration: 2 µM
Setting: whole 60-bp probe, lowest competitor level
With: Cbf1 competitor, 0.05 µM
Reading: higher = stronger binding
Target sequence (chain): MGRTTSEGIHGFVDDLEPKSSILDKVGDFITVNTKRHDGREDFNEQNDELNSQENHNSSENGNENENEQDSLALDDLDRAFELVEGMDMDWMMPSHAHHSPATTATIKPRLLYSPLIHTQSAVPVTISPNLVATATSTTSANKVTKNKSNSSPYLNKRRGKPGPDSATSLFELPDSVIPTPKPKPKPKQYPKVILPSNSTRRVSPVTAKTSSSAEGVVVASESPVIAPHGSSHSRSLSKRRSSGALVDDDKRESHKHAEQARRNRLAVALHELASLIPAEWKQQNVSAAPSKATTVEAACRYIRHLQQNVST
`CTTCTGTAAATTTGTCACCCGACTTGACGCGCCCCGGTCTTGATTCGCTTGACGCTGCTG` gave a fluorescence intensity of 3450 a.u.
The fluorescence intensity of `AAGTTTTTGTATGAGCATGTGACAGTAAATGCGAACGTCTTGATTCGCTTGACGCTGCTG` is reported as 9420 a.u.
`CGTATGGTCTGCGACCTTGGGACATACAGTAAGTAGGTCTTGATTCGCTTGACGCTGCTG` has a fluorescence intensity of 4710 a.u.
With `AAATTACTAAGTTGCGGCGTGGGTGACGCCGTATGAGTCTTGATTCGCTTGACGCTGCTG` the fluorescence intensity was 7750 a.u.
`TTGCAATACACTCGGCACGCACTTTATCACTGGGCTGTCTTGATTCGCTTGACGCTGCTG` gave a fluorescence intensity of 8320 a.u.
The fluorescence intensity of `AGAGCAAATAGTTGAAAGGTGTGCCATAAGAAGGTGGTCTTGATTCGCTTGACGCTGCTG` is reported as 6980 a.u.
With `GCTGACGCTATCCGTCACGTGGTGATGGCAGCTGCTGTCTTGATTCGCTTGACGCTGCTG` the fluorescence intensity was 14400 a.u.
`CTAACGAAGGTTTGGGCAGTGGGTGACAAGCCAAGTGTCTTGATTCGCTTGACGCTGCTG` gave a fluorescence intensity of 3780 a.u.
`CGGGGTTAAGTTTGTAGAGTGGGTGGCTTGCAGCAGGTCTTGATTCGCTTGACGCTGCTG` has a fluorescence intensity of 4740 a.u.
For `GAAGGTTCCCGGTCCGTTGTGATGGGAAGATCTGACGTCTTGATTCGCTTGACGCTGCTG`, the fluorescence intensity was 3590 a.u.
`CATCAGCCTTCCATGCCCGTGCAATTACGGCTCCTCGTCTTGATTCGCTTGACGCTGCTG` has a fluorescence intensity of 7190 a.u.
The fluorescence intensity of `TTTTCTTTCGATTAGCACGCACACACATCACATAGAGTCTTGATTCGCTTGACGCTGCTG` is reported as 11900 a.u.
With `GTGCGGCCATTGCTGAAAATCGCAAAACCCACAGAGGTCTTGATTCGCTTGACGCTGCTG` the fluorescence intensity was 4720 a.u.
`TGTTGCAGTCGAATTCTCGTGGCCGTACGCAATTTCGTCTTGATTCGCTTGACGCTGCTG` has a fluorescence intensity of 6140 a.u.
`GTCTTGTCTCATTGCCCAGTGGGTGTCCCCACTTCAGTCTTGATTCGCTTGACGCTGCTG` gave a fluorescence intensity of 4430 a.u.
`ACCTAGGACTACCAACACATGCAAGGATGCCAGTCTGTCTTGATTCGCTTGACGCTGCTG` has a fluorescence intensity of 7810 a.u.
The fluorescence intensity of `AAAGCGGTAATTTGGGTGGTGGGTGCAGATATCTATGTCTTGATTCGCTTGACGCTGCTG` is reported as 4320 a.u.
`GTCTTGTCTCATTGGAGCGTGGGTGTCCCCACTTCAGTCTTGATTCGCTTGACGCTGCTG` has a fluorescence intensity of 7970 a.u.
The fluorescence intensity of `GTAACGATTTACCATCACGTGGATTGTGATATAATTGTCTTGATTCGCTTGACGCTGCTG` is reported as 15700 a.u.

A few entries again (study 1):
The E-score of `CAACCGCC` is reported as 0.114.
`AGTCTTAC` has an E-score of -0.0265.
With `ACCCCATA` the E-score was -0.127.
The E-score of `AGCTCGAG` is reported as -0.0139.
`GTGAGTTA` gave an E-score of -0.0995.
With `AAACAGAG` the E-score was -0.147.
`AGGGTATA` gave an E-score of -0.136.
For `GTGTGTTA`, the E-score was -0.0746.
